Measurements gathered from unrelated publications.
A part holds a random share of what one study measured. ± gives the spread as reported.

Study 1
Organism: SARS-CoV-2 Wuhan spike VSV pseudovirus
Read-out: pseudovirus entry
Tested at: concentration not given
For `Cc1ccc(CN2CCC(CNC(=O)C3CCN(c4ccc(-c5cccs5)nn4)CC3)C2)cc1` (stereo not drawn), the inhibition was 41%.
The inhibition of `CCOC(=O)c1cccc(NC(=O)CCS(=O)(=O)c2ccc(Br)s2)c1` is reported as 39%.
With `COCCCN1CN(c2cc(Cl)cc(Cl)c2)c2nc(C)c(C)c(=O)n2C1` the inhibition was 43%.
`CCn1nccc1-c1csc(S(=O)(=O)Nc2cc(Cl)ccc2C)c1` gave an inhibition of 40%.
`O=C(Cn1ncc(Cl)c(Cl)c1=O)NCCC1=CCCCC1` has an inhibition of 44%.
For `CSc1cccc(NC(=O)C(=O)c2cccn2Cc2ccc(C)c(C)c2)c1`, the inhibition was 39%.
`Cc1cnc(C)c(N2CCN(Cc3ccc(C#CC(C)(C)O)s3)CC2)n1` has an inhibition of 39%.
`CC1=CC(=O)C(CCOCCC2=CC(=O)C(C)=CC2=O)=CC1=O` has an inhibition of 38%.
With `CC(=O)N1CCCSc2ccc(S(=O)(=O)N3CCSc4ccccc43)cc21` the inhibition was 40%.
The inhibition of `C=CC(=O)N1CN(C(=O)C=C)CN(C(=O)C=C)C1` is reported as 36%.
The inhibition of `Cc1cc(C)cc(NC(=O)N2c3ccccc3CC2c2noc(C3CCOCC3)n2)c1` (stereo not drawn) is reported as 39%.
`COc1ccc(-c2noc(CC3CCN(C(=O)c4cncc(Br)c4)CC3)n2)cc1` has an inhibition of 38%.

Single results of other studies
rep papain-like protease: Replicase polyprotein 1ab, papain-like protease (rep, Severe acute respiratory syndrome coronavirus 2, UniProt P0DTD1)
rep nsp12 RdRp: Replicase polyprotein 1ab, nsp12 RdRp (rep, Severe acute respiratory syndrome coronavirus 2, UniProt P0DTD1)
rep nsp14: Replicase polyprotein 1ab, nsp14 (rep, Severe acute respiratory syndrome coronavirus 2, UniProt P0DTD1)
For `SLVAVTAAQSTIEEQAKTFLDKFS`, the relative binding was 3.67 (SARS-CoV-2 spike RBD; peptide spot array; peptide; concentration not given; reference: wild-type ACE2 peptide).
For `Nc1ncnc2c1ncn2[C@@H]1O[C@H](CO)[C@@H](O)[C@@H]1O`, the IC100 was 8.05 ± 0.29 µM (SARS-CoV-2; cytopathic effect; Vero C1008, Omicron BA.1; 48 h).
`COc1ccc(O)cc1OC` gave an activity of 16.5% (rep papain-like protease; concentration not given, C111S mutant; reference: positive control).
`CCC(CC)[C@H](NC(C)=O)[C@@H]1[C@H](O)[C@@H](C(=O)O)C[C@H]1N=C(N)N` has an IC50 of 0.233 ± 0.0225 µM (neuraminidase (Influenza B virus, UniProt A0A1S5RAG6, H273Y)).
`COc1ccc2c(c1)C(=O)N(CCc1ccc(S(=O)(=O)NC(=O)NC3CCCCC3)cc1)C(=O)C2(C)C` gave a BLI response of 0.01 nm (rep nsp12 RdRp; binding, biolayer interferometry; concentration not given).
For `Nc1ncnc2c1ncn2[C@@H]1O[C@H](CSCC[C@H](N)C(=O)O)[C@@H](O)[C@H]1O`, the ΔTm was 9.7 °C (rep nsp14; thermal shift; 250 µM).
The activity of `CC(C)(C)OC(=O)N[C@H]1CCCCC/C=C\[C@@H]2C[C@@]2(C(=O)NS(=O)(=O)C2CC2)NC(=O)[C@@H]2C[C@@H](OC(=O)N3Cc4cccc(F)c4C3)CN2C1=O` is reported as 19.5% (rep papain-like protease; concentration not given, C111S mutant; reference: positive control).
`OC[C@H]1O[C@@H](n2cnc3c(N[C@@H]4CCOC4)ncnc32)[C@H](O)[C@@H]1O` has an EC90 of 11.9 µM (Severe acute respiratory syndrome coronavirus 2; viral replication, inhibitor; Vero C1008; 48 h).
For `N#C[C@@]1(n2ccc(N)nc2=O)O[C@H](CO)[C@@H](O)[C@H]1O`, the EC90 was 6.4 ± 0.03 µM (SARS-CoV-2; viral replication; Vero, Gamma).
For `O=C(NC1CCN(c2ncnc3[nH]cnc23)CC1)c1cccc(S(=O)(=O)N2CCCCC2)c1`, the inhibition was 5.01% (rep nsp14; NSP14 enzyme activity, inhibitor; 0.01221 µM).
The BLI response of `Cc1ccc(Nc2nccc(N(C)c3ccc4c(C)n(C)nc4c3)n2)cc1S(N)(=O)=O` is reported as 0.06 nm (rep nsp12 RdRp; binding, biolayer interferometry; 50 µM).
For `CCC(CC)COC(=O)[C@H](C)N[P@](=O)(OC[C@H]1O[C@@](C#N)(c2ccc3c(N)ncnn23)[C@H](O)[C@@H]1O)Oc1ccccc1`, the EC50 was 0.3 ± 0.04 µM (SARS-CoV-2; Calu-3, Delta).

For quick reference, copied from above (single results of other studies):
The activity of `CC(C)(C)OC(=O)N[C@H]1CCCCC/C=C\[C@@H]2C[C@@]2(C(=O)NS(=O)(=O)C2CC2)NC(=O)[C@@H]2C[C@@H](OC(=O)N3Cc4cccc(F)c4C3)CN2C1=O` is reported as 19.5% (rep papain-like protease; concentration not given, C111S mutant; reference: positive control).
`OC[C@H]1O[C@@H](n2cnc3c(N[C@@H]4CCOC4)ncnc32)[C@H](O)[C@@H]1O` has an EC90 of 11.9 µM (Severe acute respiratory syndrome coronavirus 2; viral replication, inhibitor; Vero C1008; 48 h).
For `N#C[C@@]1(n2ccc(N)nc2=O)O[C@H](CO)[C@@H](O)[C@H]1O`, the EC90 was 6.4 ± 0.03 µM (SARS-CoV-2; viral replication; Vero, Gamma).
For `O=C(NC1CCN(c2ncnc3[nH]cnc23)CC1)c1cccc(S(=O)(=O)N2CCCCC2)c1`, the inhibition was 5.01% (rep nsp14; NSP14 enzyme activity, inhibitor; 0.01221 µM).
